# Measurements of several laboratories.
# Protocols differ between the studies behind these lines. “And” joins repeats or separate records; there may be more than shown. ± marks the error that the study gave.
# Chain of UniProt P54132 (whole entry, looked up): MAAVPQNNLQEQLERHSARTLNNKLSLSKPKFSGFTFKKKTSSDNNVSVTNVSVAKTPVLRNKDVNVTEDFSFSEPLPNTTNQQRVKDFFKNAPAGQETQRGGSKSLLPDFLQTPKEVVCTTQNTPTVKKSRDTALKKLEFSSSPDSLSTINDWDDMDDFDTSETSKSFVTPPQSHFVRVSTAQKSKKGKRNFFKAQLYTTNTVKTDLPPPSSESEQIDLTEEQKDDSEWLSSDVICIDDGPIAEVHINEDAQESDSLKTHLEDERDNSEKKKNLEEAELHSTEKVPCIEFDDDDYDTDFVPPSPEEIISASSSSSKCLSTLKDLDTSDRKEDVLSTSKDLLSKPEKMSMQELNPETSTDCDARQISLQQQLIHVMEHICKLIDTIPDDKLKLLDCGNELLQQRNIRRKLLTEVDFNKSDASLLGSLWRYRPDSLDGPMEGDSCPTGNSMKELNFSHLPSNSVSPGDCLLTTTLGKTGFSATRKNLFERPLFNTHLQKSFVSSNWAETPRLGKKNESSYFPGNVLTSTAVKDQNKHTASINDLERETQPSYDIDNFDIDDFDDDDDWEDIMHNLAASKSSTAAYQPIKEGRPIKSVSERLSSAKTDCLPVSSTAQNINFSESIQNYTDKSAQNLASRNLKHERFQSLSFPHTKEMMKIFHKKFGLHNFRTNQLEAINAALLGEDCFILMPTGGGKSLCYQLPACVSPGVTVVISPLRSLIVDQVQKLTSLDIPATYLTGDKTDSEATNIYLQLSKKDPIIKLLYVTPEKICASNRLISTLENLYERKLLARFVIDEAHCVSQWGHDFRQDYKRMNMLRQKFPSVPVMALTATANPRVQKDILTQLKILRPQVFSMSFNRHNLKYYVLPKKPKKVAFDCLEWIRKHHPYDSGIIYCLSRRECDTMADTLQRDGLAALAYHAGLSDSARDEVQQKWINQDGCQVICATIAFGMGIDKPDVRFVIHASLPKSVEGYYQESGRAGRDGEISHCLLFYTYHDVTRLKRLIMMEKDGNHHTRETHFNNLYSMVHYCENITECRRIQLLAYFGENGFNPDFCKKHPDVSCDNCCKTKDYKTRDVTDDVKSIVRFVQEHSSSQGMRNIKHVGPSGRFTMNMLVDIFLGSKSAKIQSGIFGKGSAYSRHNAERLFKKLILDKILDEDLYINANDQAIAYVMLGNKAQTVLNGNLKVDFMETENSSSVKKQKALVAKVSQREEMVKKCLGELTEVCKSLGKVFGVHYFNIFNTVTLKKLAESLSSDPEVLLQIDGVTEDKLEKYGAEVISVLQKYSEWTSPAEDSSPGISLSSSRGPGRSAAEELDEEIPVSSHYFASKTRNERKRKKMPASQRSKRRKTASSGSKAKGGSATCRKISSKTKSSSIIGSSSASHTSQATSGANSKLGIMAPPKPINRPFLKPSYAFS
# Chain of UniProt Q8WTQ7 (whole entry, looked up): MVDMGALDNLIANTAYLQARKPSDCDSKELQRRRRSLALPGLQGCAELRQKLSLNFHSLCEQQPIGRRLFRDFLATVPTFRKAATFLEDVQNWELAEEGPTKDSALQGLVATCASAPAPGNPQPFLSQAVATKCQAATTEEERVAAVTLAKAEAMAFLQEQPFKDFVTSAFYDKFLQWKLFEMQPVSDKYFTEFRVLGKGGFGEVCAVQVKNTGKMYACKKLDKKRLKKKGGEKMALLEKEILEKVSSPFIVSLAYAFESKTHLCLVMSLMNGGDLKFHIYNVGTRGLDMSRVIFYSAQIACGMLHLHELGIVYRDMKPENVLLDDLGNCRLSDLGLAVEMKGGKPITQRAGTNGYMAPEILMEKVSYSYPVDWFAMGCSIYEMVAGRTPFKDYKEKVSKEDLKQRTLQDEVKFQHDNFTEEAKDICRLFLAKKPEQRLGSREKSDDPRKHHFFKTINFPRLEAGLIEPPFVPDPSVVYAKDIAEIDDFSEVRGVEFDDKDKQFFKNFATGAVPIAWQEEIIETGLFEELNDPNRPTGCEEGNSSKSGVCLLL
SMILES,target or system,test,system,conditions,how to read,endpoint,value
Cc1ncsc1-c1ccc(C(C)NC(=O)C2CC(O)CN2C(=O)C(NC(=O)CCCCCCCCCCN2CCCC(Nc3ncc(Cl)c(Nc4ccccc4S(=O)(=O)C(C)C)n3)C2)C(C)(C)C)cc1 (stereo not drawn),22Rv1,"RNA-seq, measured: ZNF232 mRNA",,concentration not given,baseline: DMSO,log2 fold change,-1.21
C=CC(=O)Nc1cccc(Cn2ncc3cnc(Nc4cnn(CCOC)c4)nc32)c1,TBK1 human,"binding, KINOMEscan",,100 nM,lower = stronger binding,percent of control,27%
OO,,,"pancreatic islet cells, mouse","125 µM, 24 h",,live cells,4.6%
CC(=O)[O-].O.O.O.O.[Mn+2].[O-]c1ccc(Br)cc1C=NCCN1CCOCC1,,nitric oxide scavenging,,160 µM,,inhibition,29.4%
NC[C@@H](C(=O)Nc1ccc(-c2cn[nH]c2)cc1)c1ccccc1,,tonometry,"Macaca cyclopis, ocular normotensive","ocular, 0.1%, 24 h",,IOP,18.3 mmHg
COc1cc(O)ccc1CCC(c1ccc(O)cc1)c1cc2c(c(C)c1O)OC(c1ccc(O)cc1)CC2 (mixture of isomers),,,human blood,"10 µM, added: A23187",,5-HETE level,1180 ± 484 pg/mL
COC1OC(C)C(OC2OC(C)C(O)C(OC3OC(C)C(OC4OC(C)C(O)C(OS(=O)(=O)O)C4OS(=O)(=O)O)C(OS(=O)(=O)O)C3OS(=O)(=O)O)C2OS(=O)(=O)O)C(OS(=O)(=O)O)C1OS(=O)(=O)O (stereo not drawn),,,human plasma,128 µg/mL,,thrombin time,9.6 ± 0.5 s
Nc1ncc(-c2cc(-c3cnn(CC(F)(F)F)c3)ncc2F)nc1C(=O)NC1CNCC(F)C1 (stereo not drawn),PRKD3,KINOMEscan,,1 µM,baseline: DMSO control,remaining binding,89%
CN1CCC[C@]1(C)/C=C/S(=O)(=O)NC(=O)Nc1c2c(cc3c1CCC3)CCC2,,,"human, whole blood ex vivo","12.5 mg twice daily, day 19, 108 h, multiple ascending dose, added: LPS and ATP",,IL-1β inhibition,-70.8%
CC(C)(C)NCC(SS(=O)(=O)O)c1ccccc1 (stereo not drawn),,,"Swiss Webster mice, Schistosoma mansoni-infected","100 mg/kg single dose on day 42 post-infection, perfusion day 56 post-infection",baseline: vehicle,spleen weight decrease,22%
O=C(Nc1cnccc1-c1ccc([18F])cc1)c1ccnc(NC(=O)C2CC2)c1,,"ex vivo biodistribution, gamma counting","GSK-3β overexpressing transgenic mouse, early stage, cecum","intravenous, 120 min post-injection, added: tariquidar 15 mg/kg iv, at least 120 min before tracer",,mean SUV,3.02
COC1OC(C)C(OC2OC(C)C(O)C(OC3OC(C)C(OC4OC(C)C(O)C(OC5OC(C)C(OC6OC(C)C(O)C(OS(=O)(=O)O)C6OS(=O)(=O)O)C(OS(=O)(=O)O)C5OS(=O)(=O)O)C4OS(=O)(=O)O)C(OS(=O)(=O)O)C3OS(=O)(=O)O)C2OS(=O)(=O)O)C(OS(=O)(=O)O)C1OS(=O)(=O)O (stereo not drawn),,,human plasma,128 µg/mL,,thrombin time,10.3 ± 0.2 s
COc1cc2c(NC3CCN(C(C)C)CC3)cc(N3CCOCC3)nc2cc1OCCCN1CCCC1,,"TMT quantitative proteomics, measured: LDHB","5xFAD mice, hippocampus",dose not given,,normalised protein abundance,0.00155 and -0.0227 and -0.00398 and -0.0291 and -0.0449 and -0.0434 and 0.00999 and 0.00874
COc1ccccc1-c1ccncc1C(=O)Nc1nnc(OCc2ccc(Cl)cc2)s1,"RecQ-like DNA helicase BLM, residues 636–1298 (BLM, Homo sapiens, UniProt P54132)","ATPase activity, ADP-Glo",,"0.03 µM, 1 h",,remaining activity,107%
COC1OC(C)C(OC2OC(C)C(O)C(OC3OC(C)C(OC4OC(C)C(O)C(OC5OC(C)C(O)C(OS(=O)(=O)O)C5OS(=O)(=O)O)C4OS(=O)(=O)O)C(OS(=O)(=O)O)C3OS(=O)(=O)O)C2OS(=O)(=O)O)C(OS(=O)(=O)O)C1OS(=O)(=O)O (stereo not drawn),,,human plasma,128 µg/mL,,thrombin time,9.6 ± 0.1 s
COC1CN([C@H]2CC[C@H]([C@@]3(C)Oc4c(Cl)cc(C(=O)NCc5c(SC)cc(C)[nH]c5=O)c(C)c4O3)CC2)C1,,"RNA-seq, measured: MAGI2","human, whole blood","dose not given, 24 h",baseline: pretreatment baseline,log2 fold change,1.74
Cc1ccc(N(O)/N=N/c2ccc(S(=O)(=O)Nc3nccs3)cc2)cc1,,"DPPH scavenging, absorbance",,240 µg/mL,,inhibition,32.1%
CNS(=O)(=O)Nc1nccc(Cc2c(C)c3ccc(Oc4ncccc4F)cc3oc2=O)c1F,LOU-NH91,cell viability,,7 days,,IC50,> 1000 nM
COC1OC(C)C(OC2OC(C)C(OS(=O)(=O)O)C(OC3OC(C)C(OC4OC(C)C(OS(=O)(=O)O)C(OC5OC(C)C(OC6OC(C)C(OS(=O)(=O)O)C(OC7OC(C)C(OC8OC(C)C(OS(=O)(=O)O)C(OC9OC(C)C(OC%10OC(C)C(OS(=O)(=O)O)C(OC%11OC(C)C(OS(=O)(=O)O)C(OS(=O)(=O)O)C%11O)C%10O)C(OS(=O)(=O)O)C9O)C8O)C(OS(=O)(=O)O)C7O)C6O)C(OS(=O)(=O)O)C5O)C4O)C(OS(=O)(=O)O)C3O)C2O)C(OS(=O)(=O)O)C1O (stereo not drawn),,,human plasma,128 µg/mL,baseline: control,thrombin time prolongation,1 fold
C=C1CC[C@H](OCCCNC(=O)CCOCCOCCOCCOCCOCCOCCOCCOCCOCCOCCOCCOCCOCCOCCOCCOCCOCCOCCOCCOCCOCCOCCOCCOCCOCCOCCOCCOCCOCCOCCOCCOCCOCCOCCOCCOCCNC(=O)CCN2C(=O)CC(SC[C@H](NC(=O)[C@H](Cc3ccccc3)NC(=O)[C@H](CC(N)=O)NC(=O)[C@H](Cc3c[nH]cn3)NC(=O)[C@@H](NC(=O)[C@H](CC(=O)O)NC(=O)[C@H](CCC(N)=O)NC(=O)[C@H](CC(C)C)NC(=O)[C@H](CCCCN)NC(=O)[C@H](CCCCN)NC(=O)[C@H](CCCNC(=N)N)NC(=O)[C@H](CC(C)C)NC(=O)[C@H](Cc3c[nH]c4ccccc34)NC(=O)[C@H](CCC(=O)O)NC(=O)[C@@H](NC(=O)[C@H](CCCNC(=N)N)NC(=O)[C@H](CCC(=O)O)NC(=O)[C@H](CCSC)NC(=O)[C@H](CO)NC(=O)[C@H](CC(N)=O)NC(=O)[C@H](CC(C)C)NC(=O)[C@H](Cc3c[nH]cn3)NC(=O)[C@H](CCCCN)NC(=O)CNC(=O)[C@H](CC(C)C)NC(=O)[C@H](CC(N)=O)NC(=O)[C@H](Cc3c[nH]cn3)NC(=O)[C@H](CCSC)NC(=O)[C@H](CC(C)C)NC(=O)[C@H](CCC(N)=O)NC(=O)[C@@H](NC(=O)[C@H](CCC(=O)O)NC(=O)[C@H](CO)NC(=O)[C@@H](NC(=O)[C@@H](N)CO)C(C)C)[C@@H](C)CC)C(C)C)C(C)C)C(=O)O)C2=O)C/C1=C/C=C1\CCC[C@]2(C)[C@@H]([C@H](C)CCCC(C)(C)O)CC[C@@H]12 (stereo partly drawn),,,"male cynomolgus monkey, plasma","intravenous, 0.02 mg/kg, single dose",,half-life,32.3 h
C=C(NC(=O)c1csc(-c2nc3c(cc2O)-c2nc(cs2)C(=O)NC(C(C)O)C(=O)NC(=C(C)OC)c2nc(cs2)C(=O)NC2c4nc(cs4)C(=O)NC(COC(=O)c4c5c6c(cccc6n4O)COC(=O)C(OC4CC(C)(O)C(N(C)C)C(C)O4)C2OC5)c2nc-3cs2)n1)C(N)=O (stereo not drawn),,,"cynomolgus monkey, plasma","intravenous, 3 mg/kg, single dose, infusion",,half-life,5.25 h
COc1ccc(C(=O)CCc2cc(C(CCc3ccc(O)cc3OC)c3ccc(O)cc3)c(O)cc2OC)cc1 (racemic),,,human blood,"3 µM, added: A23187",,5-HETE level,6670 ± 2180 pg/mL
CC(C)C[C@H](NC(=O)[C@@H](CCCCNC(=O)[C@@H](Cc1ccccc1)NC(=O)CCCCCNC(=O)CN1CCN(CC(=O)O)CCN(CC(=O)O)CCN(CC(=O)O)CC1)NC(=O)[C@H](Cc1ccc(O)cc1)NC(=O)[C@H](CO)NC(=O)[C@H](Cc1c[nH]c2ccccc12)NC(=O)[C@H](Cc1c[nH]cn1)NC(=O)[C@@H]1CCC(=O)N1)C(=O)N[C@@H](CCCNC(=N)N)C(=O)N1CCC[C@H]1C(=O)NCC(N)=O [indium-111 labelled],,,"athymic nude mouse, female, intestines","intravenous, 0.037 MBq, 1 h",,tissue uptake,1.56 ± 0.63 %ID
COC1OC(C)C(O)C(OC2OC(C)C(O)C(OS(=O)(=O)O)C2OS(=O)(=O)O)C1OS(=O)(=O)O (stereo not drawn),,,human plasma,128 µg/mL,,thrombin time,10.6 ± 0.5 s
Cc1nn(-c2cccc(N)c2)c(=O)c2cnc(Nc3ccc(N4CCNCC4)cc3)nc12,"GRK7 (Homo sapiens, UniProt Q8WTQ7)","kinase activity, inhibitor, SelectScreen kinase profiling",,,,IC50,2840 nM
COC1OC(C)C(OS(=O)(=O)O)C(OC2OC(C)C(OS(=O)(=O)O)C(OC3OC(C)C(OS(=O)(=O)O)C(OC4OC(C)C(OS(=O)(=O)O)C(OC5OC(C)C(OS(=O)(=O)O)C(OC6OC(C)C(OS(=O)(=O)O)C(OC7OC(C)C(OS(=O)(=O)O)C(OC8OC(C)C(OS(=O)(=O)O)C(OC9OC(C)C(OS(=O)(=O)O)C(OC%10OC(C)C(OS(=O)(=O)O)C(OS(=O)(=O)O)C%10O)C9O)C8O)C7O)C6O)C5O)C4O)C3O)C2O)C1O (stereo not drawn),,,human plasma,128 µg/mL,baseline: control,thrombin time prolongation,0.9 fold
CC(C)OCCOCc1ccc(OCC(O)CN(N=O)C(C)C)cc1 (stereo not drawn),Salmonella typhimurium,Ames test,TA1537,"50 µg/plate, 30 % rat S9",baseline: solvent control,revertant fold increase,1.3 fold
COc1c(Cl)cccc1Nc1c(-c2ccncc2C#C[C@@]2(C)CCCN2C(=O)/C=C/CN(C)C)[nH]c2c1C(=O)NCC2,,,"male NSG mouse, PDX","25 mg/kg once daily, 42 days, EGFR SVD",,tumour growth inhibition,98.2%
COC1OC(C)C(OC2OC(C)C(OS(=O)(=O)O)C(OC3OC(C)C(OC4OC(C)C(OS(=O)(=O)O)C(OC5OC(C)C(OC6OC(C)C(OS(=O)(=O)O)C(OC7OC(C)C(OC8OC(C)C(OS(=O)(=O)O)C(OC9OC(C)C(OC%10OC(C)C(OS(=O)(=O)O)C(OS(=O)(=O)O)C%10O)C(OS(=O)(=O)O)C9O)C8O)C(OS(=O)(=O)O)C7O)C6O)C(OS(=O)(=O)O)C5O)C4O)C(OS(=O)(=O)O)C3O)C2O)C(OS(=O)(=O)O)C1O (stereo not drawn),,,human plasma,128 µg/mL,,thrombin time,10.1 ± 0.6 s
O=CCNCCOn1c(=O)n(OCCNCCO)c(=O)n(OCCNCCOn2c(=O)n(OCCNCCO)c(=O)n(OCCNCCO)c2=O)c1=O,,DPPH scavenging,,250 µg/mL,,inhibition,23.2%
COc1cnc2cccc(N3CCc4c(cc(Cn5ccnc5)cc4-c4cn(C)nc4C(F)(F)F)C3=O)c2c1,,,"BALB/c nude mice, MV4-11 xenograft","intraperitoneal, 100 mg/kg, day 14",,tumour volume,180 mm3 and 162 mm3 and 193 mm3 and 210 mm3 and 125 mm3
COc1cc(N2CCN(C(=O)C3CCCN3)CC2)ccc1Nc1ncc(Cl)c(Nc2ccccc2P(C)(C)=O)n1 (stereo not drawn),,,"nude mice, NCI-H3122 xenograft","intraperitoneal, 10 mg/kg every other day, day 9",,tumour volume,61.4 mm3 and 53.1 mm3 and 59.9 mm3 and 50.8 mm3 and 92.6 mm3
O=C(N[C@@H](Cc1coc2ccccc12)B(O)O)[C@@H]1C[C@H]2CC[C@@H]1O2,,tumour growth,"U266B1, mouse, U266B1 multiple myeloma xenograft","oral, 1 mg/kg daily",,T/C,-81%

# Some of these lines once more:
SMILES,target or system,test,system,conditions,how to read,endpoint,value
COC1OC(C)C(OC2OC(C)C(O)C(OC3OC(C)C(OC4OC(C)C(O)C(OS(=O)(=O)O)C4OS(=O)(=O)O)C(OS(=O)(=O)O)C3OS(=O)(=O)O)C2OS(=O)(=O)O)C(OS(=O)(=O)O)C1OS(=O)(=O)O (stereo not drawn),,,human plasma,128 µg/mL,,thrombin time,9.6 ± 0.5 s
NC[C@@H](C(=O)Nc1ccc(-c2cn[nH]c2)cc1)c1ccccc1,,tonometry,"Macaca cyclopis, ocular normotensive","ocular, 0.1%, 24 h",,IOP,18.3 mmHg
